Measured values gathered from unrelated publications.
Numbers after ± are the reported error.

Structure (SMILES)	test	test system	conditions	scale	remaining compound
Fc1ccc(N2CCNCC2COc2ccc3ccccc3c2)cc1 (stereo not shown)		mouse liver microsomes	90 min		64 ± 2%
CC(C)[N+](C)(CCOC(=O)C1c2ccccc2Oc2ccccc21)C(C)C		CD-1 mouse whole blood	5 µM, 0 min		100%
c1ccc(-c2cc(NCCCN3CCCCC3)c3ccccc3n2)cc1		human plasma	1 h		95.5%
Cc1cc(Oc2ncccc2CN2CCN(c3cccc(C)c3C)CC2)ccc1-c1c(C)c(=O)[nH]c(=O)n1C	metabolic stability	rat liver S9 fraction	2 µM, 0.6667 h, pH 7.4		> 90%
CO[C@@H](C[C@H]1C(C)=CC[C@@H]2[C@]3(C)C[C@H](O[C@@H]4O[C@@H](C)[C@H](OC(=O)c5cccc(O)c5)[C@@H](O[C@@H]5O[C@H](CO)[C@@H](O)[C@H](O)[C@H]5NC(C)=O)[C@H]4O)[C@@H](O)C(C)(C)[C@H]3CC[C@]21C)[C@H](N)C(=O)O.O=C(O)C(F)(F)F		simulated gastric fluid with pepsin	1 µM, 30 min, pH 1.2		100%
CNc1cc[n+](CCNC(=O)c2ccn3c(-c4c(C)noc4C)cnc3c2)cc1.[Cl-]		aqueous buffer	initial, pH 7		100 % peak area
CC(C)=CCC[C@](C)(O[C@@H]1O[C@H](CO)[C@@H](O)[C@H](O)[C@H]1O)[C@H]1CC[C@]2(C)[C@@H]1[C@H](O)C[C@@H]1[C@@]3(C)CC[C@H](O[C@@H]4O[C@H](CO)[C@@H](O)[C@H](O)[C@H]4O[C@@H]4O[C@H](CO)[C@@H](O)[C@H](O)[C@H]4O)C(C)(C)[C@@H]3CC[C@]12C		rat plasma	25 ng/mL, 24 h, room temperature		96.9 ± 2%
CC1(C)OB(c2ccccc2/C=N/NC(=O)c2ccncc2)OC1(C)C	LC-UV	DMEM cell medium	100 µM, 24 h, without H2O2		85%
CC[N+]1(C)CCN(c2ccc(NC(=O)c3cccc(C)n3)cc2)CC1		pooled BALB/c mouse plasma	1 µM, 0.5 h		98.1%
N#Cc1ccc(Nc2nc(N)cc(Oc3c(F)cc(-c4ccc(C#N)cc4)cc3F)n2)cc1		monkey plasma	1 µM, 0.00 h, pH 7.4, 37 °C		100%
O=Cc1c(O)cc(C(F)(F)F)cc1C(F)(F)F		HEPES buffer	1 mM, 20 h, pH 7.4, 10% acetonitrile		30%
COc1cc2c3cc1Oc1c(OC)c(OC)cc4c1[C@@H](Cc1ccc(O)c(c1)Oc1ccc(cc1)C[C@@H]3N(C)CC2)N(C)CC4		mouse plasma, K3EDTA	1 h, on ice		94%
C=CC(=O)N1CCC(C(=O)NCC(=O)N2CCN(c3nc(-c4cnc(N)nc4C(F)F)nc(N4CCOCC4)n3)CC2)CC1		microsomes, rat liver, male, Sprague-Dawley	1 µM, 30 min, 0.5 mg/mL microsomal protein, together with: NADPH		93.2%
N.O=C(Nc1nc2ccccc2s1)NS(=O)(=O)O		dog liver microsomes	4 µM, 30 min		0%
C=CC(=O)N1CCC(C(=O)N(C)CC(=O)N2CCN(c3nc(-c4cnc(N)nc4C(F)F)nc(N4CCOCC4)n3)CC2)CC1		microsomes, rat liver, male, Sprague-Dawley	1 µM, 60 min, 0.5 mg/mL microsomal protein, together with: NADPH		86.9%
COc1ccc2c(Cc3ccccc3F)c3[n+](cc2c1OC)CCc1cc2c(cc1-3)OCO2.[Br-]		rat liver microsomes	10 µM, 30 min, pH 7.4, together with: microsomes 0.5 mg/mL		14.4 ± 1.9%
COc1ccc2[nH]c([S+]([O-])Cc3ncc(C)c(OC)c3C)nc2c1 (stereo not shown)		simulated gastric fluid with pepsin	1 µM, 240 min, pH 1.2		0%
COc1ccc2c(Cc3ccccc3F)c3n(c(=O)c2c1OC)CCc1cc2c(cc1-3)OCO2		rat liver microsomes	10 µM, 30 min, pH 7.4, together with: microsomes 0.5 mg/mL		35 ± 3%
N=C(N)Nc1cccc(C(=O)NCC(=O)NC[C@H](NC(=O)c2c(Cl)cc(-c3ccccc3)cc2Cl)C(=O)O)c1		mouse liver microsomes	45 min		93%
Cc1cc2ccccc2n1CCNC(=O)c1ccc(N2CCC(C(=O)O)CC2)cc1		mouse liver microsomes	60 min		> 50%

Structure (SMILES)	test	test system	conditions	scale	remaining compound
N#Cc1ccc(-c2cc(NCCCN3CCCCC3)c3ccccc3n2)cc1		human liver microsomes	1 h		40.8%
COc1ccc(-c2c(-c3ccc(C#N)c(F)c3)nc(N3CCC(N)CC3)n(C)c2=O)cc1F		aqueous buffer	4 days, 37 °C		98%
Cc1cc2ccccc2n1CCNC(=O)c1cnc(Nc2ccccc2)nc1		mouse liver microsomes	60 min		> 7%
CCOC(=O)[C@H](CCc1ccccc1)N[C@@H](C)C(=O)N1CCC[C@H]1C(=O)O		mouse plasma	10 µM, 120 min		24.6%
O=C(O)Cc1ccccc1Nc1c(Cl)cccc1Cl		human liver microsomes	1 µM, 60 min, pH 7.4		2%
CCOc1ccc2ccc(=O)oc2c1		mouse liver microsomes	1 µM, 10 min, pH 7.4		7.9%
NC(=O)c1ccccc1NC(=O)c1ccc(-c2ccccc2)cc1		human plasma	2 µM, 0 h, 37 °C		100%
CC(C)=CC(=O)CCC(=O)N1CCN(Cc2cc3nc(-c4cccc5[nH]ncc45)nc(N4CCOCC4)c3s2)CC1		rat liver microsomes	1 µM, 60 min, protein 0.5 mg/mL, together with: NADPH		1.5%
CC(C)C[C@H](NC(=O)[C@H](CCc1ccccc1)NC(=O)CN1CCOCC1)C(=O)N[C@@H](Cc1ccccc1)C(=O)N[C@@H](CC(C)C)C(=O)[C@@]1(C)CO1		human liver microsomes	60 min		not detected
O=C(Oc1coc(CSc2ncccn2)cc1=O)c1ccc([N+](=O)[O-])cc1		mouse plasma	1 h		< 1%
CSc1ncc(Br)c(C(=O)N[C@@H](CCC(=O)O)C(=O)N[C@@H](Cc2ccc3ccccc3c2)C(=O)N[C@@H](CC(C)C)C(=O)N[C@@H]2C[C@H]2c2ccccc2)n1		pooled human plasma	120 min, 37 °C		95.6%
COC(=O)/C=C/c1ccc(OCCN(C)C(=O)c2ccccc2)cc1	HPLC	Tris buffer	100 µM, 72 h, pH 8.5, 37 °C, together with: glutathione 5 mM	reference: time zero	> 80%
C[C@H](CCC(=O)N[C@@H](CCC(=O)O[C@H]1C[C@H](n2cc(F)c(=O)[nH]c2=O)O[C@@H]1CO)C(=O)O)[C@H]1CC[C@H]2[C@@H]3[C@H](O)C[C@@H]4C[C@H](O)CC[C@]4(C)[C@H]3CC[C@]12C		rat liver S9	5 µM, 1 h, 37 °C, together with: 1 mM NADPH		6.8%
N#Cc1ccccc1-c1cc(NCCCN2CCCCC2)c2ccccc2n1		human plasma	1 h		93.2%
Cn1cncc1-c1c(F)cncc1NC(=O)c1c(N)nn2cc(F)cnc12		human EDTA plasma	15 ng/mL, time not given, 3 freeze-thaw cycles at -80 °C, low QC		105%
C#Cc1ccc(C(F)(F)F)cc1C=O		HEPES buffer	1 mM, 20 h, pH 7.4, 10% acetonitrile		42%
C#CCN(C)Cc1ccccc1		aqueous buffer	0 days, 37 °C		97%
CC(C)[N+](C)(CCOC(=O)C1c2ccccc2Oc2ccccc21)C(C)C		pooled human plasma	0 min, 37 °C		100%
C/C(=N\NC(=O)c1cccc(S(=O)(=O)N2CCN(C)CC2)c1)c1cc(Cl)ccc1O		aqueous buffer	0 days, 37 °C		88%
CSc1nccc(C(=O)N[C@@H](CCC(=O)O)C(=O)N[C@@H](Cc2ccc3ccccc3c2)C(=O)N[C@@H](CC(C)C)C(=O)NC2CC2c2ccccc2)n1 (stereo partly shown)		pooled human plasma	120 min, 37 °C		100%

Repeated from above:
Structure (SMILES)	test	test system	conditions	scale	remaining compound
Cc1cc2ccccc2n1CCNC(=O)c1ccc(N2CCC(C(=O)O)CC2)cc1		mouse liver microsomes	60 min		> 50%
N#Cc1ccc(-c2cc(NCCCN3CCCCC3)c3ccccc3n2)cc1		human liver microsomes	1 h		40.8%
